Results from different studies.
Protocols differ between the studies behind these lines. ± marks the error that the study gave.
Matrix: plasma

The AUC(0-24h) of `CCN1C(=O)CNc2ncc(-c3ccc(-c4nc[nH]n4)nc3C)nc21` is reported as 1100 ng·h/mL (human; oral, 16 mg once daily, multiple doses).
`C#C[C@]1(O)CC[C@H]2[C@@H]3CCc4cc(O)ccc4[C@H]3CC[C@@]21C` has an AUC(0-24h) of 0.829 ng·h/mL (human, postmenopausal women with type 2 diabetes; oral, 0.03 mg daily for 8 days, added: semaglutide 1.0 mg sc weekly).
With `Cc1ncc(CO)c(C(=O)O)c1O` the AUC(0-24h) was 70.9 ng·h/mL (human, both sexes; dose not given, population mean baseline).
`COc1cccc(-c2ccc(NC(=O)C3=C(C(=O)O)CCC3)c(F)c2)c1` has an AUC(0-24h) of 41100 ng·h/mL (human, male, fasted; oral, 20 mg, single dose, geometric mean).
`O=C([O-])CCCCCCCNC(=O)c1ccccc1O.[Na+]` gave an AUC(0-24h) of 1090 ng·h/mL (human, normal hepatic function; oral, 300 mg once daily, day 10, geometric mean).
For `CCN(CC)CCNC(=O)c1c(C)[nH]c(/C=C2\C(=O)Nc3ccc(F)cc32)c1C`, the AUC(0-24h) was 264 ± 49.7 ng·h/mL (LC-MS/MS; human, cancer patients on efavirenz; oral, 50 mg/day, cycle 1 day 1).
`Cn1c(Cn2ccc(C(F)(F)F)c(Oc3cc(Cl)cc(C#N)c3)c2=O)n[nH]c1=O` gave an AUC(0-24h) of 38.6 µM·h (human; oral, 100 mg once daily, day 19 of, geometric mean, added: islatravir 2.25 mg once daily).
The AUC(0-24h) of `CS(=O)(=O)n1cc2c(n1)CN([C@H]1CO[C@H](c3cc(F)ccc3F)[C@@H](N)C1)C2` is reported as 1.5 µM·h (healthy male human; oral, 5 mg, fasted, geometric mean).
For `CC(=O)c1c(C)c2cnc(Nc3ccc(N4CCNCC4)cn3)nc2n(C2CCCC2)c1=O`, the AUC(0-24h) was 1650 ng·h/mL (human patients; oral, 125 mg once daily, steady state, geometric mean, added: inavolisib + letrozole).
`Cc1ccc(NC(=O)c2ccc(CN3CCNCC3)cc2)cc1Nc1nccc(-c2cccnc2)n1` gave an AUC(0-24h) of 7700 ng·h/mL (human patients; oral, 400 mg/day of imatinib, day 10 of cycle 1).
`CC(C)n1nc(-c2ccc3oc(N)nc3c2)c2c(N)ncnc21` has an AUC(0-24h) of 173 ± 107 ng·h/mL (human patients; oral, 2 mg single dose, single agent run-in).

A few entries again:
The AUC(0-24h) of `CS(=O)(=O)n1cc2c(n1)CN([C@H]1CO[C@H](c3cc(F)ccc3F)[C@@H](N)C1)C2` is reported as 1.5 µM·h (healthy male human; oral, 5 mg, fasted, geometric mean).
